Measurements gathered from unrelated publications.
Numbered parts are unrelated; each lists some results of a single study.

Study 1
Target: Histone acetyltransferase KAT6A, winged helix 2, GST fusion (KAT6A, Homo sapiens, UniProt Q92794, residues 85-181)
Method: protein binding microarray
Form: double-stranded DNA, one strand shown
Sample: in vitro
Tested at: not given
Notes: 8-mer, flanks averaged, mean of 2 arrays, mostly near background
Relative to: not given
Direction: higher = stronger binding
Residues (chain): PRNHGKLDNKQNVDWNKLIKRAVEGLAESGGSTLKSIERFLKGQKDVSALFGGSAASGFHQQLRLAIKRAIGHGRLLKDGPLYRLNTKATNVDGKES
Sequence	E-score
CACGCACA	0.158
AGCTATAT	0.0396
AAGGAAGA	0.0144
CGTCAAGC	0.075
AGAACTCA	0.00902
GAACGGTA	-0.117

Study 2
Target: RING finger protein unkempt homolog, zinc fingers 1-6, GST-SBP tag (UNK, Homo sapiens, UniProt Q9C0B0, residues 30-357)
UniProt Q9C0B0, sequence (30-357, looked up): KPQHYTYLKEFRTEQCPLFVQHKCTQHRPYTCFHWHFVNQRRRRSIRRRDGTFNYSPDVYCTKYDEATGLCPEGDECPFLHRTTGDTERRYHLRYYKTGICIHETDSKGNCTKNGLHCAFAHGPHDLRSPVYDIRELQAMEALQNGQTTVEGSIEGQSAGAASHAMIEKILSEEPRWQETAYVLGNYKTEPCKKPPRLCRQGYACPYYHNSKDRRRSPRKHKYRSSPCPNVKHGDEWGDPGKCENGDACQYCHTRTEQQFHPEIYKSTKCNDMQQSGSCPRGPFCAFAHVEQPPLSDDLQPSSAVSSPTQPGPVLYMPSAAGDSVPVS
Method: RNA Bind-n-Seq
Form: RNA
Sample: in vitro
Tested at: not given
Notes: RNA with constant flanks, human-mouse chimeric sites, ends assumed
Relative to: input RNA pool
Direction: higher = stronger binding
Sequence	bound/input enrichment
GGGAGUUCUACAGUCCGACGAUCAGUUCCAAACCACCAUCAGAAAUGAAGAUGAGAUUACCCAGACGAGCCAAAACAGCUAGCACUAGAAAAAGUAAACUUAACCUUGCAGAGUUCCUUAAUGAAGAUACAAGUUAAGAGAGCCAACAGAGGAUUGAGCAUCA	2.85 ratio
GGGAGUUCUACAGUCCGACGAUCCUUUUUAAGAAGAUAUGUGAUGGGAUCUUCUAUACCCCUCAAUAUUUAAACCCUUCAGUAAUCAGCCUUUUGAAACAUAUGCUGCAGGUGGAUCCCAUGAAGAGGGCCGCAAUAAAAGAUCAACAGAGGAUUGAGCAUCA	0.265 ratio
GGGAGUUCUACAGUCCGACGAUCCUAGCAGUCCAGCAGCUAGAAGGAGCCUUGAGACAAACACUCCACACGCAGGGAGGGCGAUAACAUUGUACAUUGGUUUACAUUUUUUCCCCCUGUGGAUUUUUCUAGAGGUCAUAGUGCCAACAGAGGAUUGAGCAUCA	0.575 ratio
GGGAGUUCUACAGUCCGACGAUCUUAAUCCCCUUUACUGCUCCCCCACUUGUCAUGCUGAUAACAAAGUCUUAUAUCCCCGUCCUAGCUUUCACUCAGAUGGCUUAUGGAGCCAGUUUCCUAGCUUUCUUGGGAGGGAUCAGACAACAGAGGAUUGAGCAUCA	0.245 ratio

Study 3
Target: Sal-like protein 4, full length isoform B (SALL4, Homo sapiens, UniProt Q9UJQ4-2, residues 1-616)
Method: universal PBM
Form: double-stranded DNA, one strand shown
Sample: in vitro
Tested at: not given
Notes: 8-mer, flanks averaged, mean of replicates
Direction: higher = stronger binding
Residues (chain): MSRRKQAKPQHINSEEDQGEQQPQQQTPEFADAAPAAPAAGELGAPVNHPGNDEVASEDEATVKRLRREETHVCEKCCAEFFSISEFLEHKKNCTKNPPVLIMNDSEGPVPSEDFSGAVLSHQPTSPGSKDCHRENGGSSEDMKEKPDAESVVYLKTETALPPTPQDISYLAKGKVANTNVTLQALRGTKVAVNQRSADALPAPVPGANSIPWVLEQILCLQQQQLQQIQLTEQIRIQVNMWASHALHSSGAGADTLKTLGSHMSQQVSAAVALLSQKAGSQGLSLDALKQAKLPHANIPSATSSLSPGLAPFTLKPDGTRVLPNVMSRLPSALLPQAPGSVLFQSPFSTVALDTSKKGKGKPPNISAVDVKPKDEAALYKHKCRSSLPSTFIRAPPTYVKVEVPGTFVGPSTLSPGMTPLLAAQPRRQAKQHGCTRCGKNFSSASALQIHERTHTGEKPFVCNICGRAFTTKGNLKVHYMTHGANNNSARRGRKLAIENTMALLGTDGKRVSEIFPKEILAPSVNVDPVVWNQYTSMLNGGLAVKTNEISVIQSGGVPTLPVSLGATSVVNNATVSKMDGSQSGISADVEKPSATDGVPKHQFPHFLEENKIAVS
Sequence	E-score
GTCCATAA	0.176
GCGTCAAC	-0.249
CAAATTCA	0.108
AAATCTTC	0.109

Mixed results
Molecule	target	assay	test system	setting	how to read	endpoint	value
PhoQ, residues 284 288 289 292 302 303 TLMATV	PhoP, residues 12 14 15 18 19 LHSVW (Escherichia coli, UniProt P23836)	Sort-seq, measured: YFP reporter	E. coli	PhoQ-PhoP variant library, added: 10 µM Mg2+	relative to: high Mg2+ state, higher = stronger signaling	fold induction	2.31

Some of these lines once more (mixed results):
Molecule	target	assay	test system	setting	how to read	endpoint	value
PhoQ, residues 284 288 289 292 302 303 TLMATV	PhoP, residues 12 14 15 18 19 LHSVW (Escherichia coli, UniProt P23836)	Sort-seq, measured: YFP reporter	E. coli	PhoQ-PhoP variant library, added: 10 µM Mg2+	relative to: high Mg2+ state, higher = stronger signaling	fold induction	2.31
